# Published values from different studies.
# A part holds a random share of what one study measured. Changes are numbered by the printed parent chain.

# Sample 1
# Target: Prothrombin, mature alpha-thrombin (F2, Homo sapiens, UniProt P00734)
# Method: aptamer microarray, sandwich
# Molecule type: DNA with 2'F-ANA
# Medium: in vitro
# Concentration: 200 nM
# Notes: whole 15-mer aptamer, many near background
# With: Cy3 exosite-II aptamer, 400 nM
# Reading: higher = stronger binding
# Sequence: GGTTGGTGTGGTTGG
Modification,mean fluorescence intensity [a.u.]
2'F-ANA at 8 11,588
2'F-ANA at 1 2 3 6 7 8 11 12 15,342
2'F-ANA at 2 3 6 7 9 10 11 14 15,228
2'F-ANA at 1 3 4 5 6 11 13 14,46.3
2'F-ANA at 7 9 11 12 13 15,650
2'F-ANA at 2 3 5 8 11 12 14 15,81.6
2'F-ANA at 1 3 7 12,553
2'F-ANA at 1 5 7 8 12 14,50.9
2'F-ANA at 2 4 5 6 7 8 10 11 12 13 14,47.9
2'F-ANA at 1 6 8 12 14,76.1
2'F-ANA at 1 2 3 4 5 6 7 14,278
2'F-ANA at 1 2 3 4 5 7 9 10 11 12 14 15,50.3
2'F-ANA at 1 2 3 6 10 12,83.8
2'F-ANA at 3 6 8 10 11 13 14 15,287
2'F-ANA at 1 2 4 6 7 8 9 10 11 12 13,53.3
2'F-ANA at 1 3 6 11 12 14,99.4
2'F-ANA at 1 6 8 14 15,66.8
2'F-ANA at 2 3 9 12 15,1110
2'F-ANA at 1 2 4 7 8 10 11 12 13,54.6
2'F-ANA at 2 3 4 6 10 13 14 15,164
2'F-ANA at 1 2 3 4 6 7 10 11 12 13 14,91.2
2'F-ANA at 2 3 4 6 9 12 14 15,275
2'F-ANA at 7 8 13 14 15,226
2'F-ANA at 4 5 6 7 10 11 12 13 14 15,49.6

# Sample 2
# Target: RNA binding protein fox-1 homolog 2, RRM domain, GST-SBP tag (RBFOX2, Homo sapiens, UniProt O43251-10, residues 100-194)
# Method: RNA Bind-n-Seq
# Molecule type: RNA
# Medium: in vitro
# Concentration: 365 nM
# Notes: natural RNA segment, single round, ends assumed
# Relative to: no-protein control
# Reading: higher = stronger binding
# Constant ends, left off below: GGGAGUUCUACAGUCCGACGAUC … UGGAAUUCUCGGGUGCCAA
# Residues (chain): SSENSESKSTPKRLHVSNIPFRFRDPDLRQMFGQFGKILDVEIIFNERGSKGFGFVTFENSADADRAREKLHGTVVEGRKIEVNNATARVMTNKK
Sequence,RBNS enrichment (R)
AGUCUAGGGAAUUUAUUUGGUAUUUGUAAGGCAAGAGGUGAUUUCUCUCUAAUAUAUCUGAGUUAUUGCUCAUUUAAAACUGUUAAGUCCAGUAUAAUUUUCCCUGAUAU,0.407
AUGCAUGUGUCUGUCUGAUCAGCAUCACUGCACACGGAGGUCUAGUGAGCCUCUUGCUAAGUGUCACACACACUCUUCCCAAAGACGUGAUGAGUUAAAGUUGUAUUCUG,1.24
GCAGAGGCCACGCAUGUUUGACCAAAGCCCUCAUUGUGGUCCGAGGACAGCCUUUUCCCCAGGCCUCAGAGCAUUGCUCAUCCGUGCCAAACUGGGUAGGUGGAUUUGAG,25.9
UUUACUAUUGUAUGUCAUUUAAUUCUGAUCUGUUUAAUGCUACAAAAGUAAAGUUGAAAAGAUCUAAGACAUCUAGUUACCUAGACUGUACCCAGCAGGUAUCACUUGGU,0.333
UUAACCCUGACUUUGGGAUCUGCCUGCAUCGGCGUUGGCCACUGUCCCCAUUUACAUUUUCCCCACUCUGUCUGCCUGCAUCUCCUCUGUUCCGGGUAGGCCUUGAUAUC,7.57
AUAGUCUUCUUGUAAGGAGCAUUGGGCUGUCAUCUUUGAGCUGCUUAUCAAAAUACAGAUCAUUAUUGCAUAUAUGCAAAUUCUGUUUUAUUUUAUCCCUAAUAACAGAA,0.679
CUGAUUUGUUCUCUGGAUAAAUUAGCAUAGUUAUUUUUUUAUUCACAUUUACAUUUCUAAGUAGUUGUAUAGUAGAAGCAGGAAGCUCUUAUUGCUUAUUUGGUCGUAAU,1.03
CUGGCCUGGCCUCCUUUCCGUCCGGGCAGCUGUGCUGCAGAGACAAAAAGUGGUGCUGAGGGACUCCUAAGUCGGCCGUAGCACCUCGAGCCCUGGGCUUUGAAGGCAGC,0.488
AGGCUUCAGUCAGCCCCUCACUGUGGUCCAAGAAUGCCACACACCUUUCCGUAGAUAUGCCGAUGGUAAUUAUCUUUUCUUUUGGCUUAAUCCGAUUUGGUUUGGUUUUU,0.266
GAGUUCUGCAGUAUAGAACAAUUACUUGUAUGAAAUUAUACCUUUGAAUUUUAGAAUGUCAUGUGUUCUUUUAAAAAAAUUAGCUCCCCAUCCUCCCUCCUCACUCCCUC,1.12
AGGUGUUAUUCUUAAUGUUUCUGUCAAAGCUUCUUAAAAAUCUUCACUUGGUUUCAGCCAUAGUUCACCUUCCCUGUUCCAGGUUUAUUUAAUUCCAAAGGUGAGAGUUG,0.321
GAAGAUGCAAGGACCUCUCCUCAAGAGACUGUUGCCUGCCUGAAGCUUCUGUUCAGGCUCAUGCCAAGCUUGACCGGAUUGGGAGAACUGGACUCAGUUUAACCUGUAUC,0.369

# Sample 3
# Cell line: yeast with cyclin F-Cln2 chimera
# Observed: cell growth
# Mode: binder
# Method: competitive growth deep sequencing
# Molecule type: peptide
# Concentration: concentration not given
# Notes: peptide tiling library
# Reading: direction not given
Sequence,growth enrichment score
LAKRALKYTD,1.74
RRRRLLFWDKETQI,2.65
VSRNLRSSLKSSLHTL,0.532
YLYLLLTQSLWCRV,1.81
ATNSSHTDAHEILVSD,-0.168
NRLLKLFTRCLTPLVP,1.76
ELGMEHCEKFEISETS,-0.096
PPTFLSTGEIHAFLSS,0.376
HRRRLLFACSPPPASQ,3.8
ISRLFPPRTPGWHQLQ,0.809
EHCRVLFLDHVMYTIH,1.61
GPVKLEFDVSDGAT,1.15
RTEALEQGGLPKKLIF,1.76
SFLIEYEFLIPPSLKP,0.0398
KVRRNLFNQELLSP,3.34
SPREGHMMDALYAQVK,0.75
NLEPNAEFDKRTEFIT,0.659
NESHLDKEHDAVEVAD,0.0304

# Sample 4
# Target: ABI1, truncated, D143A, DHFR fusion (Arabidopsis thaliana)
# Method: DHFR PCA, deep sequencing
# Medium: yeast
# Notes: methotrexate growth selection, single substitutions
# With: (+)-ABA 0.39 µM
# Relative to: wild-type fitted maximum
# Reading: higher = stronger binding
# Starting sequence: PYL1, truncated, DHFR fusion (Arabidopsis thaliana); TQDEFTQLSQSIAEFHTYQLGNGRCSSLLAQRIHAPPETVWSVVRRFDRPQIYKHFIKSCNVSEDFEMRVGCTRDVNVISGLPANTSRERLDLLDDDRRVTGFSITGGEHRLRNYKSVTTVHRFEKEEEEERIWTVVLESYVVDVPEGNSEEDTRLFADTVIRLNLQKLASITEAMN; partner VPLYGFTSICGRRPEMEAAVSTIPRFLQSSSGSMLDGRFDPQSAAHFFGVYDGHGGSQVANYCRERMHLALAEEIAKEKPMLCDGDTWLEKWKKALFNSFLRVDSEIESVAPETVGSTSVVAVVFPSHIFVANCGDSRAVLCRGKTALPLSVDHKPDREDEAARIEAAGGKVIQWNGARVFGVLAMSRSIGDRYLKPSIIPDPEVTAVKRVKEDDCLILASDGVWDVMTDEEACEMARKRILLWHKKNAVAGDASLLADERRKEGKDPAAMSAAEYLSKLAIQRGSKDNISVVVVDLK
Change,relative binding score [%]
I33H,-0.148
H16T,-7.62
L112G,-9.65
E131Q,63
S80T,40.3
F157H,22.8
S87A,10.1
Q31V,1.37
V118G,-12.1
R123C,27.7
D48N,4.71
E130T,46.9
V143Q,-10.6
G107F,-4.91
G107W,-0.904
G21Q,42
F56H,5.27
G107Y,1.85
V78Y,93.9
C60T,10.8
I79L,3.51
V161M,78.7
R45K,-0.649
R113E,10.8

# Sample 5
# Target: Interferon regulatory factor 7, full length, phosphomimetic (IRF7, Homo sapiens, UniProt Q92985, residues 1-503, S101K/S471D/S472D/S475D/S476D/S477D/S483D/S484D/S487D)
# Chain of UniProt Q92985 (whole entry, unmodified, looked up): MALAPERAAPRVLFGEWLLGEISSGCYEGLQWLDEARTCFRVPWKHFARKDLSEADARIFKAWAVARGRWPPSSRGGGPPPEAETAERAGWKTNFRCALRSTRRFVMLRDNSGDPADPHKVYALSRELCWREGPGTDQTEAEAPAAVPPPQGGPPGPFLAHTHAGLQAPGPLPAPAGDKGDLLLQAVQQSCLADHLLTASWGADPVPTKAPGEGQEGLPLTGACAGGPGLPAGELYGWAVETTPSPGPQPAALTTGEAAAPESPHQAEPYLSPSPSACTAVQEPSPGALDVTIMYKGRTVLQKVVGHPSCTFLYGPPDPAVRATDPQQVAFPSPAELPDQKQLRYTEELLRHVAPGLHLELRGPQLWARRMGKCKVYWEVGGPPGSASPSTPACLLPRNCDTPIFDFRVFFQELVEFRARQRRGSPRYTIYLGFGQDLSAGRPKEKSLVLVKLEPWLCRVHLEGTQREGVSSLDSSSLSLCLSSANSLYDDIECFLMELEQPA
# Method: protein-binding microarray
# Molecule type: double-stranded DNA, one strand shown
# Medium: in vitro
# Concentration: 250 nM
# Notes: 60-bp whole probe
# With: salmon DNA 0.4 mg/ml
# Relative to: random background probes
# Reading: higher = stronger binding
# Constant ends, left off below: GCCTAGCAC … GTCTTGATTCGCTTGACGCTGCTG
Sequence,log fluorescence [z-score]
TTAGGAATCCTTTTCCTTTAGTGCTAG,1.2
GACGGTAACCTTCTCCTGACGTGCTAG,-0.552
GACGGTATGGACACTGGGGACGTGCTA,-0.659
TTAGGTTTCGTACTGGGTTAGTGCTAG,4.19
TTAGGTATCGACACTGGGATAGTGCTA,-0.272
GACGGGCTGGGGTTTCGGGACGTGCTA,0.396
TTAAAACTGAGTATCGATTAGTGCTAG,0.861
GACGGTTTCGACTTTCGGGATGTGCTA,10.6
AACGATTTCAGTTCCGAGACGTGCTAG,0.672
TTAGGTCTCCTTATCCTTGAGTGCTAG,0.301
TTAGGTATCGACCATCGGTTAGTGCTA,-0.244
TTAGATATCGGGTTTCGAGTAGTGCTA,3.36
TTCGAACTGAGTATCGATTAGTGCTAG,0.498
TTTCCTTTATGTACTCTCTACGTGCTA,2.41
CAAGTTTCTCCTTTGTAAATGTGCTAG,3.54
TAGTTTTACTTTCTATCTCTGTGCTAG,3.38
GACGGTATCCTACTGCTAACGTGCTAG,-0.0766
GTTTTTTTTTAATTGAAATCGTGCTAG,2.16
ATATATTCATATATATATGAGTGCTAG,0.807
GACGATTTCGCGTTTCGAGACGTGCTA,2.38
TTAGGTTTCCACTTTCGGTTAGTGCTA,6.59

# Sample 6
# Target: Histone acetyltransferase KAT6A, both winged helices, GST fusion (KAT6A, Homo sapiens, UniProt Q92794, residues 1-181)
# Method: protein binding microarray
# Molecule type: double-stranded DNA, one strand shown
# Medium: in vitro
# Concentration: not given
# Notes: 8-mer, flanks averaged, mean of 2 arrays, mostly near background
# Relative to: not given
# Reading: higher = stronger binding
# Construct (chain): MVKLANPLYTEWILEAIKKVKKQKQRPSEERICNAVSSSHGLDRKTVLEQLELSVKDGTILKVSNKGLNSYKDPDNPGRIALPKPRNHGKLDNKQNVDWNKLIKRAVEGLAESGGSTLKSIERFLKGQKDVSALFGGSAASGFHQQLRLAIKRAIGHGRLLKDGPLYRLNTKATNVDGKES
Sequence,E-score
CACAGCGC,0.254
TATCCGAA,0.104
CCAACCCC,-0.233
CAACCACC,-0.115
CACGGTCA,0.136
ACAGAAGG,-0.142
AGTGCGTG,0.121
CACATACA,-0.0961
AAAGATAT,-0.149
GTATCGAC,0.0871
AGGTCCCA,-0.221
GTTCGGCA,0.117
ACCCGAGC,0.173
GCGAGGAA,0.139
CTGCAGGC,-0.107
CGGCGGAG,0.294
GCGTAACA,0.0776
AAGAATAA,-0.0916
CATGTCTC,-0.0653
AATCTATC,-0.0653
ATTAATCA,-0.0405
CCCCTACA,-0.169
CAAATTGA,-0.178
CGCGATGA,0.21
